Literature values, collected from citations in different studies.
± marks the error that the study gave.
cyp121: Mycocyclosin synthase (cyp121, Mycobacterium tuberculosis, UniProt P9WPP7)

By UniProt entry, the sequences of proteins in these tests, tags left out. Residues count along the entry.
UniProt P9WPP7, whole entry: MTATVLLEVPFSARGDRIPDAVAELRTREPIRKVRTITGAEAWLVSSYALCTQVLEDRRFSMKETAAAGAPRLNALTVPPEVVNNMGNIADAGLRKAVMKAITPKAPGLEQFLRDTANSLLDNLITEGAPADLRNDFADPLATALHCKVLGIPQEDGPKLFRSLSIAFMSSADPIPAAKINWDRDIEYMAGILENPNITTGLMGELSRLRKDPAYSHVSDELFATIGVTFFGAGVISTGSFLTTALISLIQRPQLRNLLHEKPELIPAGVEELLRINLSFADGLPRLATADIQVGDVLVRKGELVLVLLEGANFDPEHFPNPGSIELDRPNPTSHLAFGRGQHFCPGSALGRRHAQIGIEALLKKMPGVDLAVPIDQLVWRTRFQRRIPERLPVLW
UniProt P41145, whole entry: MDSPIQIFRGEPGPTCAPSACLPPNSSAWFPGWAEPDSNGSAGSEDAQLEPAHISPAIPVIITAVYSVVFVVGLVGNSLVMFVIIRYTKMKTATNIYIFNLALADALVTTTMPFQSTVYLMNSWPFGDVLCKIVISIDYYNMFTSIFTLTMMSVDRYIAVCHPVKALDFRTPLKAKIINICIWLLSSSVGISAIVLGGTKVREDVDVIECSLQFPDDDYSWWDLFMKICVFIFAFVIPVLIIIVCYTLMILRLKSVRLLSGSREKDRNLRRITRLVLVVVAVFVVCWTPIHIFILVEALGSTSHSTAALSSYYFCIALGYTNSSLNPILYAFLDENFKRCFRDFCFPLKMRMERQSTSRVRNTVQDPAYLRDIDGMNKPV
UniProt P28065, whole entry, looked up: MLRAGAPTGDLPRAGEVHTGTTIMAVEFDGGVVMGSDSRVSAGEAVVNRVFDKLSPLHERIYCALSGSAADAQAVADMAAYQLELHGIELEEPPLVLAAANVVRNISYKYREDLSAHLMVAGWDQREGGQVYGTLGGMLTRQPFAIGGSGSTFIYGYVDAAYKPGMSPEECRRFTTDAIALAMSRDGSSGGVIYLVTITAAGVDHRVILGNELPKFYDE
UniProt P40306, whole entry, looked up: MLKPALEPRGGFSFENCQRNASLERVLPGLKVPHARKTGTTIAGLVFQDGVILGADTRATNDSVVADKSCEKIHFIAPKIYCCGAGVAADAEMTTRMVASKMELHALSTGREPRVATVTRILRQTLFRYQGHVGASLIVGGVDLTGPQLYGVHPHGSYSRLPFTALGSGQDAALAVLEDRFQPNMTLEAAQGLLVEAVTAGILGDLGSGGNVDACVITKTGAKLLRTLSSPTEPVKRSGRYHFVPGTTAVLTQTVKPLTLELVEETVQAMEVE
UniProt P25103, whole entry: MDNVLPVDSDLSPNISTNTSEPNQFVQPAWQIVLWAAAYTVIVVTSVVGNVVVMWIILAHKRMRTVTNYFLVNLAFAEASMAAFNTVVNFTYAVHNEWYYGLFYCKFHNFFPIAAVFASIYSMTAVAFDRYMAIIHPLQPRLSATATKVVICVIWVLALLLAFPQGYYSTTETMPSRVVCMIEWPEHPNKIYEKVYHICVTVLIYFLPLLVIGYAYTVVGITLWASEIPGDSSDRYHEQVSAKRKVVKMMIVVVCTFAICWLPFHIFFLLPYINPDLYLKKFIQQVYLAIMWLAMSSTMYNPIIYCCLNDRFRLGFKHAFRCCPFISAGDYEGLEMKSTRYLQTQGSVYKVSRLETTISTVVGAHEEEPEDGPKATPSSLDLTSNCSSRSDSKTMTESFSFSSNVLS
UniProt P41144, whole entry: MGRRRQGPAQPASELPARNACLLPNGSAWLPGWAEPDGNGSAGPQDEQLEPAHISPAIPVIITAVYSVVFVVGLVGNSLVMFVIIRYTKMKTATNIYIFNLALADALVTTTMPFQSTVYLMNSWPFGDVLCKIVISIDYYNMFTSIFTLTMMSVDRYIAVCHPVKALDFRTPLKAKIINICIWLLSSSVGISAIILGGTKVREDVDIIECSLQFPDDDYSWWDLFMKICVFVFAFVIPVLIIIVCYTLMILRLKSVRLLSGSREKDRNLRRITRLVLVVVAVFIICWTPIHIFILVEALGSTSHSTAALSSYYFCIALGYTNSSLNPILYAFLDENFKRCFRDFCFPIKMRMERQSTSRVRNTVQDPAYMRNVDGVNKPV
UniProt Q38C91, 1-773: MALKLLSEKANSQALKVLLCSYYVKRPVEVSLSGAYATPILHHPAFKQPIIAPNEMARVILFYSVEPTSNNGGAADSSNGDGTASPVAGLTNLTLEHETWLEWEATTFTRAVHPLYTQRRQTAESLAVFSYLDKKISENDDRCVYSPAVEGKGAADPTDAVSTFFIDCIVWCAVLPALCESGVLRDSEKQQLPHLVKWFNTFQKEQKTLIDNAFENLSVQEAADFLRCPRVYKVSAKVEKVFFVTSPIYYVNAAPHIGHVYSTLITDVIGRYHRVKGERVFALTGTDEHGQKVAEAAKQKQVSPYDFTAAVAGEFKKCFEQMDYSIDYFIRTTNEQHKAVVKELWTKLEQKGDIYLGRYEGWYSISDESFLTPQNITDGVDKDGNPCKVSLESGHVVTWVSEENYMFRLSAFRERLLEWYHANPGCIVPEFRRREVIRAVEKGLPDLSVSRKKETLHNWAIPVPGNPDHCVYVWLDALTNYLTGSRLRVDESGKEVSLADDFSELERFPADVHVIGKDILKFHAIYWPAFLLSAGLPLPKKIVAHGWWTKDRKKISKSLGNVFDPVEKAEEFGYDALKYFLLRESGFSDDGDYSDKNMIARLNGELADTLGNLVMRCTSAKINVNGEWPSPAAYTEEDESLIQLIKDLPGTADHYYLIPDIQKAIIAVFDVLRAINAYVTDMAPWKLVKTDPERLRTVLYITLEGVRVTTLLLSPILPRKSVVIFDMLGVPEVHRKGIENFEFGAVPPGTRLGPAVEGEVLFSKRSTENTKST
UniProt P9WHE9, whole entry: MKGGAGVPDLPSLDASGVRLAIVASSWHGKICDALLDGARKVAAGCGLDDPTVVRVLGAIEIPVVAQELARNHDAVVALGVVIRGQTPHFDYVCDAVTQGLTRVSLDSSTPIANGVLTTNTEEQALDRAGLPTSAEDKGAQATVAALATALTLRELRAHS
UniProt O33336, whole entry: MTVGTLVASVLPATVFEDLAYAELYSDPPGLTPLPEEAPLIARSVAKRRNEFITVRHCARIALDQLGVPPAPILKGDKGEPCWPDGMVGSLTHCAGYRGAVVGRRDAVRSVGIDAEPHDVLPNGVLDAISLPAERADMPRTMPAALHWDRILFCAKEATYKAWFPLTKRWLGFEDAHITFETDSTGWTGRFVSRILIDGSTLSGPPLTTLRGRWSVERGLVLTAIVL

`Ic1ccc(CSCn2ccnc2)cc1` has a Ki of > 10000 nM (OPRK1 (Homo sapiens, UniProt P41145)).
`CC(=O)N1CCC[C@@H]1C(=O)N[C@@H](C)C(=O)N[C@@H](Cc1ccccc1)B(O)O` gave an IC50 of 8 ± 2 nM (Proteasome subunit beta type-9 / Proteasome subunit beta type-10 (Homo sapiens, UniProt P28065+P40306); β1i activity, inhibitor).
The long-term stability of `NCCNCCSc1ccccc1` is reported as 92.1 ± 3.16 % remaining (plasma; 1 µg/mL, 30 days, -20 °C).
`Cc1cc(O)cc(C)c1C[C@H](N)C(=O)N[C@H](CCCNC(=N)N)C(=O)N[C@H]1Cc2ccccc2CN(CC(=O)N(C)Cc2cc(C(F)(F)F)cc(C(F)(F)F)c2)C1=O` has a Ki of 0.5 nM (TACR1 (Homo sapiens, UniProt P25103)).
`CCCCCCCCCCCCNC(=O)N[C@H](C(=O)N[C@H]1/C=C/CCNC(=O)/C=C/[C@H](C)NC1=O)C(C)C` gave a Ki of 194 nM (constitutive proteasome trypsin-like site; enzyme activity, inhibitor; purified proteasome).
`Cc1cc(O)cc(C)c1C[C@@H]1NC[C@H](CCCCN)NC(=O)[C@H](Cc2ccccc2)NC(=O)[C@@H](CCCNC(=N)N)NC1=O` has a Ki of 60.9 ± 0.6 nM (OPRK1 (Cavia porcellus, UniProt P41144)).
The Cmax of `c1ccc2c(c1)ccc[n+]2CCCCCCCCCC[n+]1cccc2ccccc21` is reported as 100 nM (rat, plasma; intramuscular, 5% of LD50).
The IC50 of `CN(CCNCc1cc(Cl)cc(Cl)c1)c1nc2nc(Cl)ccc2[nH]1` is reported as < 50 nM (Methionyl-tRNA synthetase, putative (Trypanosoma brucei brucei, UniProt Q38C91); enzyme activity, ATP depletion).
`CC(C)(C)c1cc[n+](CCCCCCCC[n+]2ccc(C(C)(C)C)cc2)cc1` gave an LD50 of 33.4 mg/kg (mouse; intramuscular, 24 h).
For `CCC(=O)Nc1c(NC[C@H](O)[C@H](O)[C@H](O)CO)[nH]c(=O)[nH]c1=O`, the Ki was 110000 ± 14000 nM (ribH (Mycobacterium tuberculosis, UniProt P9WHE9); inhibitor; pH 7.0).
For `c1ccc(-c2cc(Cn3ccnc3)cc(-c3ccccc3)c2)cc1`, the Kd was 1300 ± 400 nM (cyp121).
`Cc1cnc(Nc2ccc(F)cc2Cl)nc1-c1c[nH]c(C(=O)N[C@H](CO)c2cccc(Cl)c2)c1` has a Kd of 0.11 nM (ERK; binding; in vitro).
`Cc1ccc(Cn2cnc3ccccc32)cc1C` has a Kd of > 100000 nM (cyp121).
`O=c1c2ccccc2[nH]c(=S)n1Cc1cccnc1` gave an IC50 of 790 nM (4'-phosphopantetheinyl transferase PptT (Mycobacterium tuberculosis, UniProt O33336); enzyme activity, inhibitor).

Some of these lines once more:
`CC(=O)N1CCC[C@@H]1C(=O)N[C@@H](C)C(=O)N[C@@H](Cc1ccccc1)B(O)O` gave an IC50 of 8 ± 2 nM (Proteasome subunit beta type-9 / Proteasome subunit beta type-10 (Homo sapiens, UniProt P28065+P40306); β1i activity, inhibitor).
The long-term stability of `NCCNCCSc1ccccc1` is reported as 92.1 ± 3.16 % remaining (plasma; 1 µg/mL, 30 days, -20 °C).
